Published values of several laboratories.
Compare with care: the assays were run in different laboratories. Numbers after ± are the reported error.

Compound	test	system	setting	how to read	endpoint	result
CC(=O)[O-].CN1CCCN2CCN(C)CCCN(CC1)CC2.F[P-](F)(F)(F)(F)F.[Co+2]	cyclic voltammetry	acetonitrile		baseline: SHE	irreversible oxidation potential	1.42 V
O=C(c1ccc(F)cc1)C1CCN(C2Cc3c(cccc3OCC[18F])CC2O)CC1 (single isomer, unassigned; (-))		male Sprague-Dawley rat, striatum	intravenous, 60 min		brain uptake	0.819 %ID/g
CSCC[C@H](NC(=O)[C@H](CC(C)C)NC(=O)CNC(=O)[C@@H](NC(=O)[C@H](Cc1ccccc1)NC(=O)[C@H](CO)NC(=O)[C@H](CC(=O)O)NC(=O)[C@@H](NC(=O)[C@H](CCCCN)NC(=O)[C@@H](N)Cc1cnc[nH]1)[C@@H](C)O)C(C)C)C(N)=O		diet-induced obese mice	subcutaneous, 1 mg/kg twice daily		tolerability	not toxic
CCCCCCCCCCCCC(=O)O.O=C1CCCC2C3CCCN4CCCC(CN12)C34 (centres unmarked)	electrical conductivity	water	298.15 K		standard Gibbs energy of aggregation	-35 kJ/mol
COc1ccc(C)cc1NC(=O)OC1CC2CCCC(C1)N2Cc1ccc(CC[18F])cc1 (centres unmarked)		BALB/c mice EMT6 tumour, tumour	2 h		tumour uptake	4.08 ± 0.66 %ID/g
CC[C@H](C)[C@H](NC(=O)[C@H](Cc1ccc(O)cc1)NC(=O)[C@@H](NC(=O)[C@H](CCCNC(=N)N)NC(=O)[C@@H](N)CC(=O)O)C(C)C)C(=O)N[C@@H](Cc1c[nH]cn1)C(=O)N1CCC[C@H]1C(=O)N[C@@H](Cc1ccccc1)C(=O)N[C@@H](Cc1c[nH]cn1)C(=O)N[C@@H](CC(C)C)C(=O)N[C@@H](CC(C)C)C(=O)N[C@H](C(=O)N[C@@H](Cc1ccc(O)cc1)C(=O)N[C@@H](CO)C(=O)O)C(C)C	countercurrent distribution	sec-butanol/carbonate buffer	pH 10.5		distribution coefficient	0.96
CCCC[C@H](NC(=O)CN1CCC(NC(=O)CN2CCC(NC(=O)CN3CCN(CC(=O)O)CCN(CC(=O)O)CCN(CC(=O)O)CC3)CC2)CC1)C(=O)N[C@H]1CC(=O)NCCCC[C@@H](C(N)=O)NC(=O)[C@H](Cc2c[nH]c3ccccc23)NC(=O)[C@H](CCCNC(=N)N)NC(=O)[C@@H](Cc2ccccc2)NC(=O)[C@H](Cc2c[nH]cn2)NC1=O [gallium-68 labelled]	biodistribution	C57BL/6J mouse male tumour-bearing	1 h post injection, unblocked	baseline: tumour over muscle	tumour to muscle ratio	53.3 ± 13
CC(C)[C@H](NC(=O)CNC(=O)[C@H](CCC(N)=O)NC(=O)[C@H](C)N)C(=O)O		human	single dose, 30 mg/kg		possibly related adverse events	0%
CN(C)C(CNC(=O)Nc1cc(C(F)(F)F)ccc1N1CCOCC1)c1ccncc1 (centres unmarked)		mouse, serum	intraperitoneal, 240 mg/kg single dose		serum total CO2	19 mmol/L
CCC[C@@H]1O[C@@H]2C[C@H]3[C@@H]4C[C@H](F)C5=CC(=O)CC[C@]5(C)[C@@]4(F)[C@@H](O)C[C@]3(C)[C@]2(C(=O)CO)O1		CD1 mice, plasma	subcutaneous, 0.2 mg/kg		AUC	0.046 µM·h
CC[C@H](C)C(=O)N1CCC(NC(=O)Nc2ccc(OC(F)(F)F)c(F)c2)CC1		healthy volunteers	oral, 8 mg single dose		subjects with UTI TEAE	0%
CC(=CCC(O)C(C)=Cc1csc(C)n1)CC=CC(C)C(O)C(C)C(=O)C(C)(C)C(O)CC(=O)O (centres unmarked)		human, plasma	intravenous infusion, 6.5 mg/m2 KOS-1584, 3 h infusion, cycle 1		half-life	27.5 ± 11 h
C[C@@H](O)[C@H](NC(=O)[C@H](CCCCN)NC(=O)COCCN)C(=O)N[C@@H](CCCNC(=N)N)C(=O)NC(C)(C)C(=O)N[C@@H](CCCNC(=N)N)C(=O)NC(C)(C)C(=O)N[C@H](C(=O)N[C@@H](CO)C(=O)N[C@@H](Cc1c[nH]cn1)C(=O)N[C@@H](Cc1ccc(O)cc1)C(=O)NCC(=O)O)[C@@H](C)O		C57BL/6 mouse, blood	intravenous, 50 mg/kg, 10 h		granulocytes	7 to 13%
COC(=O)C[C@H](NC(=O)[C@H](C)NC(=O)[C@@H](NC(=O)[C@H](CC(=O)OC)NC(=O)[C@@H](NC(=O)c1ccc2ccccc2n1)C(C)C)C(C)C)C(=O)COc1c(F)cccc1F	echography	rat pups	1 mg/kg, 1 h		left ventricular end-diastolic diameter	0.31 ± 0.015 mm
COc1cc2ccnc(Cc3ccc(O[11CH3])c(OC)c3)c2cc1OC		Sprague-Dawley rat, striatum	i.v., 5 min		brain uptake	0.2 %ID/g
COc1cc(C(=O)NCCOCCOCCOCCNC(=O)c2ccc([18F])nc2)ccc1NC(=O)C1NC(CC(C)(C)C)C(C#N)(c2ccc(Cl)cc2F)C1c1cccc(Cl)c1F (centres unmarked)		athymic male mice, SJSA-1 xenograft	1 h	baseline: tumour over blood	tumour-to-tissue ratio	1.22 ± 0.02
CSCC[C@H](NC(=O)CNC(=O)[C@H](CC(=O)O)NC(=O)[C@@H](NC(=O)[C@@H](NC(=O)[C@@H](NC(=O)CNC(=O)[C@H](CCC(N)=O)NC(=O)[C@H](CCSC)NC(=O)[C@H](CC(=O)O)NC(=O)[C@H](C)NC(=O)[C@H](C)NC(=O)[C@@H](NC(=O)[C@H](CO)NC(=O)[C@@H](N)CC(C)C)[C@@H](C)O)C(C)C)C(C)C)[C@@H](C)O)C(=O)N[C@@H](C)C(=O)N[C@@H](CO)C(=O)NCC(=O)N[C@@H](CC(C)C)C(=O)N[C@@H](CC(=O)O)C(=O)N[C@@H](CCCCN)C(=O)N[C@@H](CC(=O)O)C(=O)N[C@@H](Cc1ccc(O)cc1)C(=O)N[C@@H](CC(C)C)C(=O)N[C@@H](CCCCN)C(=O)N1CCC[C@H]1C(=O)N[C@@H](CC(=O)O)C(=O)N[C@@H](CC(=O)O)C(=O)O		human, serum	intravenous, 0.83 mg/kg, patients, infusion		Vd	0.547 L/kg
CSCC[C@@H]1NC(=O)[C@@H]2CSSC[C@H](NC(=O)[C@H](CO)NC(=O)[C@H](C)N)C(=O)N[C@@H](CCCNC(=N)N)C(=O)N[C@@H]([C@@H](C)O)C(=O)N3CCC[C@H]3C(=O)N[C@@H](CCCCN)C(=O)N[C@@H](CC(=O)O)C(=O)N[C@H]3CSSC[C@H](NC(=O)[C@H](CCCCN)NC(=O)[C@H](CCCNC(=N)N)NC(=O)[C@H](CC(N)=O)NC1=O)C(=O)N[C@@H](CCCCN)C(=O)N[C@H]1CSSC[C@H](NC(=O)[C@@H]4CCCN4C(=O)[C@H](CC(=O)O)NC(=O)[C@H](C)NC3=O)C(=O)N[C@@H](C)C(=O)N[C@@H](CCCCN)C(=O)N[C@@H](CCC(=O)O)C(=O)N[C@@H]([C@@H](C)O)C(=O)NCC(=O)N[C@@H](CSSC[C@@H](C(N)=O)NC(=O)[C@H](CCCNC(=N)N)NC(=O)[C@H](CC(N)=O)NC1=O)C(=O)N1CCC[C@H]1C(=O)N[C@@H](Cc1ccc(O)cc1)C(=O)NCC(=O)N[C@@H](CCCCN)C(=O)N2		DA rat, pristane-induced arthritis, serum	subcutaneous, 0.1 mg/kg every other day, end of 21-day trial		gamma-glutamyl transferase	1.5 U/L
CN[C@](C)(C[18F])C(=O)O		SCID mouse SK-OV-3 xenograft, brain	15 min, post injection		tissue uptake	0.3 ± 0.1 %ID/g
CC(C)[C@H](NC(=O)CNC(=O)[C@H](CCC(N)=O)NC(=O)[C@H](C)N)C(=O)O		healthy male volunteers	intravenous, 45 mg/kg/h, 2 h, together with: LPS 2 ng/kg		subjects with moderate AE	0%
CC(C)C[C@@H](NC(=O)[C@@H](C)NC(=O)[C@@H](CC(C)C)NC(=O)[C@@H](CCCCN)NC(=O)[C@@H](CCCCN)NC(=O)[C@@H](CC(C)C)NC(=O)[C@@H](C)NC(=O)[C@H]1CCCN1C(=O)[C@@H](CC(C)C)NC(=O)[C@@H](Cc1c[nH]c2ccccc12)NC(=O)[C@@H](CCCCN)NC(=O)[C@@H](CCCCN)NC(=O)[C@@H](CC(C)C)NC(=O)[C@@H](C)NC(=O)[C@@H](CC(C)C)NC(=O)[C@@H](CC(C)C)NC(=O)[C@@H](C)NC(=O)[C@@H](CC(C)C)NC(=O)[C@@H](CCCCN)NC(=O)[C@H](N)CCCCN)C(=O)N[C@H](CC(C)C)C(=O)N[C@H](C)C(=O)N[C@H](CC(C)C)C(=O)N[C@H](CCCCN)C(=O)N[C@H](CCCCN)C(N)=O	haemolysis	human erythrocytes	30 min, pH 7.4, 37 °C		HC50	11.66 ± 0.03 µM
Cc1ccc(C(C)C)cc1.[Cl][Ru+].[O-]c1ccccc1C=NCCNc1ccnc2cc(Cl)ccc12	shake-flask method	water/n-octanol	pH 6.6		distribution coefficient D	1.99 ± 0.1
C[C@@H]1CC[C@H]2[C@@H](C)CO[C@@H]3O[C@@]4(C)CC[C@@H]1[C@]32OO4		male Sprague-Dawley rat, plasma	oral, 100 mg/kg		bioavailability	26.1%
CSCC[C@H](NC(=O)[C@H](CC(N)=O)NC(=O)[C@@H](N)Cc1ccccc1)C(=O)N[C@@H](CCC(N)=O)C(=O)N[C@@H](C)C(=O)N[C@@H](CCC(N)=O)C(=O)N[C@@H](CCCNC(=N)N)C(=O)N[C@@H](CCCNC(=N)N)C(=O)N[C@@H](Cc1ccccc1)C(=O)N[C@@H](Cc1ccc(O)cc1)C(=O)N[C@@H](CCC(=O)O)C(=O)N[C@@H](C)C(=O)N[C@@H](CC(C)C)C(=O)N[C@@H](Cc1c[nH]cn1)C(=O)N[C@@H](CC(=O)O)C(=O)NCC(=O)NCC(=O)NCC(=O)NCC(=O)N[C@@H](CO)C(=O)N[C@@H](C)C(=O)N[C@@H](CCC(=O)O)C(=O)N[C@@H](C)C(=O)N[C@@H](CCC(=O)O)C(=O)N[C@@H](C)C(=O)N[C@@H](CCCCN)C(=O)N[C@@H](C)C(=O)N[C@@H](CCCCN)C(=O)N[C@@H](C)C(=O)N[C@@H](CCC(=O)O)C(=O)N[C@@H](C)C(=O)N[C@@H](CCC(=O)O)C(=O)N[C@@H](C)C(=O)N[C@@H](CCCCN)C(=O)N[C@@H](C)C(=O)N[C@@H](CCCCN)C(=O)O		EAK peptide fibrils	overnight, 37 °C, PBS, together with: EAK to compound ratio 5:1		incorporation into fibrils	16%
CCCCCCCC/C=C\CCCCCCCCOP(O)(O)=S.N		mouse, male, nonirradiated	subcutaneous, single dose		CL/F	657 mL/h/kg
CCCCCCCCCCCCCC(=O)N[C@H](CCN)C(=O)N[C@@H]1C(=O)N[C@@H](CCN)C(=O)N[C@@H](CC(C)C)C(=O)N[C@@H](CCN)C(=O)N[C@H](Cc2ccccc2)C(=O)N[C@@H](CC(C)C)C(=O)N[C@@H](CCN)C(=O)N[C@H](CCN)C(=O)N[C@@H](C(C)C)C(=O)N[C@@H](CC(=O)O)C(=O)O[C@@H]1C		rat, plasma	subcutaneous, 10 mg/kg		bioavailability	102%
NC(=O)[C@H](Cc1ccccc1)N[11C](=O)OCc1ccccc1	binding, dynamic PET	Wistar rat, male, brain	intravenous, 3 min, together with: self-blocking, 3 µmol/kg unlabelled analogue, 3 min before		SUV max	2
F[P-](F)(F)(F)(F)F.F[P-](F)(F)(F)(F)F.[Ru+2].c1ccc(-c2ccccn2)nc1.c1ccc(-c2ccccn2)nc1.c1csc(-c2cc3cccnc3c3ncccc23)c1		acetonitrile, air-saturated	room temperature		singlet oxygen quantum yield	58%
N=C(N)NCc1ccc(C(=O)NCCCC[C@H](NC(=O)N[C@@H](CCC(=O)O)C(=O)O)C(=O)O)cc1[211At]		SCID mouse, PC-3 xenografts, liver	2 h		tissue uptake	5.62 ± 1.17 %ID/g
